Assay results of several laboratories.
Lines come from different studies, so protocols differ. Several values in a cell are separate wells, animals, samples, runs or records. ± gives the spread as reported.
ABCC3: ATP-binding cassette sub-family C member 3 (ABCC3, Homo sapiens, UniProt O15438)
UniProt O15438, sequence (whole entry, looked up): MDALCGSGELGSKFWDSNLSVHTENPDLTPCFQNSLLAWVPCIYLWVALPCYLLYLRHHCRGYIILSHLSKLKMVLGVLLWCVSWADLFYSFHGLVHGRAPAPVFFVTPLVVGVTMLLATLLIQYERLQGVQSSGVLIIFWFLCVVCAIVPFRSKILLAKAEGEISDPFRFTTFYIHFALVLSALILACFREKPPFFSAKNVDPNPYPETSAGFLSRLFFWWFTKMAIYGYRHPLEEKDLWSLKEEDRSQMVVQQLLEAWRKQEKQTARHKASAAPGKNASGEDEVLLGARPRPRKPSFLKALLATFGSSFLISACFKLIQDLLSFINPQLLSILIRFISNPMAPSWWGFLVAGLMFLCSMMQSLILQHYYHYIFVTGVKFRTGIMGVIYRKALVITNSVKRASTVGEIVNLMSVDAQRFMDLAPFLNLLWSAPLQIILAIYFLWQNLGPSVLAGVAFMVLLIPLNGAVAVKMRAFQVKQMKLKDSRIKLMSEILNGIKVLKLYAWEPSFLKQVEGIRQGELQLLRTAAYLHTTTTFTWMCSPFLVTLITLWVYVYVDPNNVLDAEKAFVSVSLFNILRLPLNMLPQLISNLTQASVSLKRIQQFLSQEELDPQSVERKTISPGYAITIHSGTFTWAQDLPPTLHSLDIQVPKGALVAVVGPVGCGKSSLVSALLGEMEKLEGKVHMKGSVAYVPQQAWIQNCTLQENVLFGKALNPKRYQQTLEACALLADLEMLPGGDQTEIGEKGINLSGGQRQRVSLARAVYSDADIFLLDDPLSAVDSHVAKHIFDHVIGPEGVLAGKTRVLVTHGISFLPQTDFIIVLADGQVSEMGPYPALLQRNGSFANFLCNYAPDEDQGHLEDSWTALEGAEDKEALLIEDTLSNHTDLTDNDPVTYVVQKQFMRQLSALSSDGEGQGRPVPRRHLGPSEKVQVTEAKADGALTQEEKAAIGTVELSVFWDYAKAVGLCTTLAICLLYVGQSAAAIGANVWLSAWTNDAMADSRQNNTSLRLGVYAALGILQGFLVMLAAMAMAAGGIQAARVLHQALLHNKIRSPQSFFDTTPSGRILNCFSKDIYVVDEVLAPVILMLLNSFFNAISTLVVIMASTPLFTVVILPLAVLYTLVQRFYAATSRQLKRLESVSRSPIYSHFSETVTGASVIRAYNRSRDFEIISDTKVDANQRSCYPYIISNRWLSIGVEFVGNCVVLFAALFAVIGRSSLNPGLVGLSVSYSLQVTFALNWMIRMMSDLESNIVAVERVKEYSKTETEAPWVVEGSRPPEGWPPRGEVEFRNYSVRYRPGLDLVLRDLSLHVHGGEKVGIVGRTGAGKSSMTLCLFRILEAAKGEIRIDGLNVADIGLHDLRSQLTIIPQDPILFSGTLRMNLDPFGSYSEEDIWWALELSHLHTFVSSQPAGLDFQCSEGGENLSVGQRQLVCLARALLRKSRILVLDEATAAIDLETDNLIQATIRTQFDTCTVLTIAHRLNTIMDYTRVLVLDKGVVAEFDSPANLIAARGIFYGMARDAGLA
KCNH2: Voltage-gated inwardly rectifying potassium channel KCNH2 (KCNH2, Homo sapiens, UniProt Q12809)
UniProt P20813, sequence (whole entry, looked up): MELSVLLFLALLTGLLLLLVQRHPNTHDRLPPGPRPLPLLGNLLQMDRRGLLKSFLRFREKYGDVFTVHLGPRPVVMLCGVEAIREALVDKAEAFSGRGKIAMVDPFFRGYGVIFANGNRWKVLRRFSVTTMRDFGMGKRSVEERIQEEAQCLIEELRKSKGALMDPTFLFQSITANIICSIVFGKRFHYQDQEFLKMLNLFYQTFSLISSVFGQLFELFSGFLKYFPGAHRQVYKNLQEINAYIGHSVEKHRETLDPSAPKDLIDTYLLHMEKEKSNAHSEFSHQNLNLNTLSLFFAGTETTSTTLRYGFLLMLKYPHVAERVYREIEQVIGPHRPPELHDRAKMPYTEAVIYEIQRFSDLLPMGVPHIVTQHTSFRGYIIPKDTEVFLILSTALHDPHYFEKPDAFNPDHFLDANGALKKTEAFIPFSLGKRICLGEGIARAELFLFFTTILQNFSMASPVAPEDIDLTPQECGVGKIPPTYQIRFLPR
UniProt Q12809, sequence (whole entry, looked up): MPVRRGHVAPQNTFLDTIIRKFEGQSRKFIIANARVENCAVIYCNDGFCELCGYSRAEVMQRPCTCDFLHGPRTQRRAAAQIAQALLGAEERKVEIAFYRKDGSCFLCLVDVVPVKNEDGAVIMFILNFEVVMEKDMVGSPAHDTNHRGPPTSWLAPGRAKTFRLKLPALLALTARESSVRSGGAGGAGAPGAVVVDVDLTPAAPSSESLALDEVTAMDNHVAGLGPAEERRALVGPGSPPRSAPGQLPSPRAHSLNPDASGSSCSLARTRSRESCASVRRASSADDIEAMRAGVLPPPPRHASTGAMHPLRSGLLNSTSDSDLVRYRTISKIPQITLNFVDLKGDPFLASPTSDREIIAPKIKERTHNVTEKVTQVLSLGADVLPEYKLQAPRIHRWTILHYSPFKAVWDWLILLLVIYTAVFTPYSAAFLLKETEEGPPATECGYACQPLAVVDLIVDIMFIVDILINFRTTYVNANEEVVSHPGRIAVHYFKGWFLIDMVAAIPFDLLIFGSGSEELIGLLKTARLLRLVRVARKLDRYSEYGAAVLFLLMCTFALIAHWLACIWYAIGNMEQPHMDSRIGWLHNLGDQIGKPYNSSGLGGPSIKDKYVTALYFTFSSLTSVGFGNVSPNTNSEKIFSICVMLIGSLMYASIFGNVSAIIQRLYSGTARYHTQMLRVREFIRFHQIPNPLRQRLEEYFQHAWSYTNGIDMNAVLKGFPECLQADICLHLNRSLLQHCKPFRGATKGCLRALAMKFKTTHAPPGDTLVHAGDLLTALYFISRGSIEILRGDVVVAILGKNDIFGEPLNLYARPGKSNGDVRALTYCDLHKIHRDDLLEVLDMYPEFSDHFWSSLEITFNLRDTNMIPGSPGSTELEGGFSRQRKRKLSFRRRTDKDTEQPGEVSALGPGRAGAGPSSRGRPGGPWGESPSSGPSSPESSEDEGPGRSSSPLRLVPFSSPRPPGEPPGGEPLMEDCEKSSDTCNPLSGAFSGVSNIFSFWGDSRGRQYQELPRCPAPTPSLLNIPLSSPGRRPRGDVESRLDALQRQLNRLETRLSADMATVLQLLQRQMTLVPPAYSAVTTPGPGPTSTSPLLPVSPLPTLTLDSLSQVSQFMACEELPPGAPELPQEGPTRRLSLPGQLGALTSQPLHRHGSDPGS

Structure (SMILES)	target	test	system	setting	scale	endpoint	result
O=C(Nc1cnccc1-c1ccc([18F])nc1)c1ccnc(NC(=O)C2CC2)c1	GSK-3β imaging tracer	–	FVB/NJ mice, both sexes, brain	intravenous, 2 min, early frames, no P-gp inhibitor	–	SUV	0.31 ± 0.14
O=C(c1ccc(OCCN2CCCCC2)cc1)c1c(-c2ccc(O[C@@H]3O[C@H](C(=O)O)[C@@H](O)[C@H](O)[C@H]3O)cc2)sc2cc(O[C@@H]3O[C@H](C(=O)O)[C@@H](O)[C@H](O)[C@H]3O)ccc12	ABCC3	substrate	Sf9 membrane vesicles	pH 7	–	intrinsic clearance	6.54 µL/min/mg protein
O=C1NC2(CC2)COc2ncc(F)cc2[C@H]2COCCN2c2ccn3ncc1c3n2	KCNH2	potassium current, whole-cell patch clamp	CHO cells expressing hERG	40.00 µM	–	inhibition	70.5 ± 3.41%
O=C(c1ccc(OCCN2CCCCC2)cc1)c1c(-c2ccc(O[C@@H]3O[C@H](C(=O)O)[C@@H](O)[C@H](O)[C@H]3O)cc2)sc2cc(O)ccc12	ABCC3	substrate	Sf9 membrane vesicles	pH 7	–	intrinsic clearance	155 µL/min/mg protein
Ic1cc2nc(c1)CNCc1cc(I)cc(n1)CNC2.[Cu+2]	Cu(II)/Cu(I) redox couple	cyclic voltammetry	DMF	0.1 M TBAP, 100 mV/s scan	–	peak potential separation	101 mV
O=C(Nc1cnccc1-c1ccc([18F])cc1)c1ccnc(NC(=O)C2CC2)c1	GSK-3β imaging tracer	–	FVB/NJ mice, both sexes, brain	intravenous, 4 min, early frames, no P-gp inhibitor	–	SUV	0.63 ± 0.15
O=C(O)CN1CCN(CC(=O)O)CCN(Cc2cccc(P(=O)(O)O)n2)CC1	Y3+	UV-vis spectrophotometric titration	–	[M(L)(OH)]2- complex	–	log K1-11 stability constant	11.2
O=C(O)c1ccc(/C=C2\SC(=S)N(Cc3cccc(C(F)(F)F)c3)C2=O)cc1	KCNH2	ion current, inhibitor, patch clamp	CHO	3 µM	–	inhibition	-3.38%
COc1cc2nc(c1)CNCc1cc(OC)cc(n1)CNC2.[Cu+2]	Cu(II)/Cu(I) redox couple	cyclic voltammetry	DMF	added: TBAP	reference: Fc/Fc+	anodic peak potential	-743 mV
CNC(=O)C1CCCN(C(=O)C2CC3CCC2N3C(=O)[C@@H]2C[C@@H](O)CN2C(=O)NCc2cccc(Cl)c2F)C1 (mixture of isomers)	Cytochrome P450 2B6 (CYP2B6, Homo sapiens, UniProt P20813)	preincubation with NADPH	human	16.7 µM	reference: negative control	remaining activity	94.4% and 99% and 102%
Clc1cc2nc(c1)CNCc1cc(Cl)cc(n1)CNC2.[Cu+2]	Cu(II)/Cu(I) redox couple	cyclic voltammetry	DMF	added: TBAP	reference: Fc/Fc+	cathodic peak potential	-703 mV
O=C(c1ccc(OCCN2CCCCC2)cc1)c1c(-c2ccc(O)cc2)sc2cc(O[C@@H]3O[C@H](C(=O)O)[C@@H](O)[C@H](O)[C@H]3O)ccc12	ABCC3	substrate	Sf9 membrane vesicles	pH 7	–	intrinsic clearance	31.2 µL/min/mg protein
[Cu+2].c1cc2nc(c1)CNCc1cccc(n1)CNC2	Cu(II)/Cu(I) redox couple	cyclic voltammetry	DMF	added: TBAP	reference: Fc/Fc+	half-wave potential	-740 mV
Cc1cc(/C=C/C#N)cc(C)c1Oc1nc(NC2CCN(Cc3ccc(S(C)(=O)=O)cc3)CC2)nc2ncccc12	KCNH2	hERG current, manual patch clamp	CHO stably expressing hERG	0.3 µM	–	inhibition	10.5%

Some of these lines once more:
Structure (SMILES)	target	test	system	setting	scale	endpoint	result
O=C(O)c1ccc(/C=C2\SC(=S)N(Cc3cccc(C(F)(F)F)c3)C2=O)cc1	KCNH2	ion current, inhibitor, patch clamp	CHO	3 µM	–	inhibition	-3.38%
